Measurements from different studies.
A part holds a random share of what one study measured.

Set 1
Target: Interferon regulatory factor 3, full length, phosphomimetic (IRF3, Homo sapiens, UniProt Q14653, residues 1-427, S386D/S396D/S398D/S402D/T404D/S405D)
Technique: protein-binding microarray
Molecule type: double-stranded DNA, one strand shown
Sample: in vitro
Tested at: 2540 nM top
Setting: 60-bp whole probe
Added: salmon DNA 0.4 mg/ml
Baseline: random background probes
Reading: higher = stronger binding
All sequences stand within: GCCTAGCAC … GTCTTGATTCGCTTGACGCTGCTG
Residues (chain): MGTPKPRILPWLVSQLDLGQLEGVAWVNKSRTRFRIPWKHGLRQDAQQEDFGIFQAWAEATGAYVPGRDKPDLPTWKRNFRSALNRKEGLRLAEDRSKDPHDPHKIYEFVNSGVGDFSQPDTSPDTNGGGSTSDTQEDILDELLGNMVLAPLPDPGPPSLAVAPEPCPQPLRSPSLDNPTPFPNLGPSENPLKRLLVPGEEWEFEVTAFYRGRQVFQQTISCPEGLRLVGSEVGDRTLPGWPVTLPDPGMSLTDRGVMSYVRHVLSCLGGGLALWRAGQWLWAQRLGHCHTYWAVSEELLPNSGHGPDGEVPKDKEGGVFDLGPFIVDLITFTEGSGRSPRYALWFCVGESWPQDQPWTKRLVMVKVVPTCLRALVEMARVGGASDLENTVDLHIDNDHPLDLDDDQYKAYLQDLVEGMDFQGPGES
Under “fitted relative affinity”, `GACGGACAGGGTATCGGGACGTGCTAG` is recorded as -0.235 z-score.
`TCACCTAACATGCTTCGAACTGTGCTA` — result for “fitted relative affinity”: 0.805 z-score.
`GACGGTCTCCTACTGCTGAAGTGCTAG`: “fitted relative affinity” 1.24 z-score.
`TCAGGTATGCTCATGACACTGTGCTAG`: “fitted relative affinity” -0.463 z-score.
`GACGAACTGGGGTACCGAGACGTGCTA`: “fitted relative affinity” -0.262 z-score.

Set 2
Target: Centromere-binding protein 1, full length, His-tagged (CBF1, Saccharomyces cerevisiae, UniProt P17106, residues 1-351)
Sequence of UniProt P17106 (whole entry, looked up): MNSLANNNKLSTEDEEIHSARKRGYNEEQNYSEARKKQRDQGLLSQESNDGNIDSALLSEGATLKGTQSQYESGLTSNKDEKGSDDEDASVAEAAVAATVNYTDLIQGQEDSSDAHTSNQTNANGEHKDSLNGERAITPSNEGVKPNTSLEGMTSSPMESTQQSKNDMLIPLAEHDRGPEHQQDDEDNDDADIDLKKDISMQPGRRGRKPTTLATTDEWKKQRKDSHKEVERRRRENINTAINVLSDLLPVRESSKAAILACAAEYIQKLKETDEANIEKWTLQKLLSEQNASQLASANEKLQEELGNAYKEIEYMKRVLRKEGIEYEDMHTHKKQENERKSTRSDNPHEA
Technique: competition protein-binding microarray
Molecule type: double-stranded DNA, one strand shown
Sample: in vitro
Tested at: 2 µM
Setting: whole 60-bp probe, lowest competitor level
Added: Pho4 competitor, 0.05 µM
Reading: higher = stronger binding
`CTTTCCCGATCTTGGATGGTGGGTGTAGCACATTTGGTCTTGATTCGCTTGACGCTGCTG` gave a fluorescence intensity of 78.7 a.u.
With `AAATTACTAAGTTTTCACGTGGAGTACCCCGTATGAGTCTTGATTCGCTTGACGCTGCTG` the fluorescence intensity was 559 a.u.
With `AAGATTACCAATCACCACGTTATTTGAGAGAGGATGGTCTTGATTCGCTTGACGCTGCTG` the fluorescence intensity was 114 a.u.

Set 3
Target: POU, POU domain (Salpingoeca helianthica)
Technique: Spec-seq
Molecule type: double-stranded DNA, one strand shown
Sample: in vitro
Tested at: not given
Setting: whole probe, mean of replicates
Baseline: not given
Reading: lower = stronger binding
All sequences stand within: GAGTCGTCTCGTCAGCAC … ATCCGTAGAGCACTCAGGTC
Construct (chain): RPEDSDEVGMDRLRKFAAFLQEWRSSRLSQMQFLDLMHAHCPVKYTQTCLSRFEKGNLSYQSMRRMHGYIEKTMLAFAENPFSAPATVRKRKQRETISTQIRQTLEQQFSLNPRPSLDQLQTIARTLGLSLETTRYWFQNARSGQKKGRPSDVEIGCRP
Under “relative binding energy”, `ATCGAC` is recorded as 1.21 ln ratio.
For `CCTATA`, “relative binding energy” read 0.353 ln ratio.
Under “relative binding energy”, `ATCGTC` is recorded as 0.911 ln ratio.
For `TGCTTA`, “relative binding energy” read 0.42 ln ratio.
`TTATTA` — result for “relative binding energy”: -0.896 ln ratio.

Mixed results
The fold induction of `PhoQ, residues 284 288 289 292 302 303 SQSLSM` is reported as 11.8 (PhoP, residues 12 14 15 18 19 NNFVT (Escherichia coli, UniProt P23836); Sort-seq, refers to: YFP reporter; E. coli; PhoQ-PhoP variant library, added: 10 µM Mg2+; baseline: high Mg2+ state, higher = stronger signaling).
